Assay results pooled from the literature.
Every numbered part comes from another study and shows a few of its results, in no order. Changes are numbered by the printed parent chain.

Series 1
Target: RNA binding protein fox-1 homolog 2, RRM domain, GST-SBP tag (RBFOX2, Homo sapiens, UniProt O43251-10, residues 100-194)
Technique: RNA Bind-n-Seq
Molecule type: RNA
Matrix: in vitro
Tested at: 365 nM
Setting: natural RNA segment, single round, ends assumed
Baseline: no-protein control
Reading: higher = stronger binding
Residues (chain): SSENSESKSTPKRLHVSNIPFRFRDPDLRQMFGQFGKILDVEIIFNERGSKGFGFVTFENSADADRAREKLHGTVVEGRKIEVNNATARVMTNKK
Sequence | RBNS enrichment (R)
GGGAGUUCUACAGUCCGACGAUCUUUCCUUCUCGUUCCUAUUCUCCGUCCUCCACAUGCAGUCCUUUGCUCAGGAAGUCUUUGGGGAAACUAAUGACCUGCAAAUUUGAAGUGGGUGACUGGCUUGGUGGCUUUGGAAUUCUCGGGUGCCAA | 0.409
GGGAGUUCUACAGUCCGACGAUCAAAUAUUACAUUUCAUUACUGCUUCAUGAAGACAGAAAGUAAUUGAAACUUAAACAUAUAAAAACAUCUAACUGCUUUGUCCUUUUUUAAUUUCAAUAUGUUUAUACUGGUGGAAUUCUCGGGUGCCAA | 0.614
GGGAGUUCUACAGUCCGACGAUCUGAGAGGUGCAAAGAGGCAGAUCUUUGCUGCCAGCCACUUCAUCCCCUCCCAGAUGUUGGACCAACACCCCUCCCUGCCACCAGGCACUGCCUGGAGGGCAGGGAGUGGGUGGAAUUCUCGGGUGCCAA | 0.211
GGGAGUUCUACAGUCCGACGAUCUCUCCGUGUCUCAGUUAUGGUCUGCUCUCUCUAUGCCUGGAGCUACUGAUCCAAACACAAGACGGUCAGAGGAGCCCUGGCAUCCUUCACUCUUAUAGGCCUACAUGCAGUGGAAUUCUCGGGUGCCAA | 0.425
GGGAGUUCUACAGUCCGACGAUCCACGCAUCAACACAUCCUCCCCAAAUCUCAAGCAAUAGACAGAAAUCUCAGUAGACUAAACUCCAGCCCAUUUUUUAAAUGUGAGCAUGUGCUUUGCCAUCCAGUGUGGGUGGAAUUCUCGGGUGCCAA | 2.67
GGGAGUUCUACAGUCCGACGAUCGGGAGCAAAAGAAAAAUUUUUGUACAUUUUCUUCAUUUAAUCAGAAUGGUUUACAUAUUUCUGCAAAUGGAGAAAAUGUAAAUAUAAACCCAUGACCAUUUACUAAGUGAUGGAAUUCUCGGGUGCCAA | 0.739
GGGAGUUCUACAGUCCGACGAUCUUUUAUUUCAUUUCUAAGAUUUUUUUUUUAACACUCCGUAUUCUGGAGCAUUUUUUUACAAUUUGGAUCUCUGCCAGUAUUGUUAAAAUUUUAUUAAAAUCAUCCAGCACUGGAAUUCUCGGGUGCCAA | 1.05
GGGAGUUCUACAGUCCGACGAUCCUCUUGCCCUCCCUGCCUAAGAGCUACUGGGAUCACGUUAGCGGGCAUUUAGGCUUUGAUGAGAGGGCACAGUUUGAGUUAGGUUUACCUCCCCCUUUCUGUGCCUGGGAUGGAAUUCUCGGGUGCCAA | 0.324
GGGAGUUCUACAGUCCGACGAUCUCCCGCCCCUCUGCUUUCGCAGGAGCUCUUGUGCUUGAGUUCAGUGUUAGUGGUAGCGUGGCUCACUCCACUUGGAGGUGGCGGCCGUCUGACCGUGUGUUACUGCUUUGUGGAAUUCUCGGGUGCCAA | 0.398
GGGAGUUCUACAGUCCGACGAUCUACCUGCCUUCCUCAACCUAAGAAGGGUUGUUAAGGCAGACCGCCCUGUUCCCCAGAGUUGUCCCUGUAGUGUCUAGGUUUAUUCUAAUGGUAAAAGUAACUUACUUAAAUGGAAUUCUCGGGUGCCAA | 0.415
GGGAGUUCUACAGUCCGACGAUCUUUCAAAAGAUAAAAGAGAAUAAUGGGUUCUUUGUAUUGGCACUUUGCACCAGAAGCAUAUCAUUAUUUAUUGCUGUGAUUACUAUCUGUCAUCCACCUUGUACUAGAAAUGGAAUUCUCGGGUGCCAA | 0.529
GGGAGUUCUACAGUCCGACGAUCCACGGCGUCCCGCAGAGCCUAGUCUGAACCACCCCAUGCCCACCCUGUGUUCCCGAGCGCUUCCAGGACUCAUCGUGAGCAGCAGCAUGGAGGCCCCUUCCUGCUGACCUUGGAAUUCUCGGGUGCCAA | 0.517

Series 2
Target: Prothrombin, mature alpha-thrombin (F2, Homo sapiens, UniProt P00734)
Technique: aptamer microarray, sandwich
Molecule type: DNA with 2'F-ANA
Matrix: in vitro
Tested at: 200 nM
Setting: whole 15-mer aptamer, many near background
Added: Cy3 exosite-II aptamer, 400 nM
Reading: higher = stronger binding
Sequence: GGTTGGTGTGGTTGG
Modification | mean fluorescence intensity
2'F-ANA at 1 2 6 8 12 13 14 | 63.9 a.u.
2'F-ANA at 3 4 5 9 10 12 13 15 | 56 a.u.
2'F-ANA at 2 5 12 15 | 175 a.u.
2'F-ANA at 2 4 5 6 7 8 10 14 | 49.9 a.u.
2'F-ANA at 5 8 9 10 13 14 | 68 a.u.
2'F-ANA at 2 4 8 15 | 376 a.u.
2'F-ANA at 2 3 6 9 10 11 13 15 | 314 a.u.
2'F-ANA at 4 6 7 8 9 11 12 13 14 15 | 87.1 a.u.
2'F-ANA at 1 2 7 8 11 | 190 a.u.
2'F-ANA at 3 5 6 7 9 | 103 a.u.
2'F-ANA at 1 3 7 8 9 10 13 14 | 61.9 a.u.
2'F-ANA at 1 4 6 8 9 11 12 14 | 52.1 a.u.
2'F-ANA at 1 3 4 5 6 10 12 | 49.2 a.u.
2'F-ANA at 1 4 5 6 7 11 13 14 15 | 57 a.u.
2'F-ANA at 1 2 3 5 6 9 13 14 15 | 47.7 a.u.
2'F-ANA at 3 6 7 8 9 11 | 924 a.u.
2'F-ANA at 1 2 6 9 11 12 15 | 244 a.u.
2'F-ANA at 3 4 5 10 | 53.5 a.u.
2'F-ANA at 5 6 7 8 9 10 11 12 15 | 50.5 a.u.
2'F-ANA at 1 2 3 7 9 10 12 14 | 59.2 a.u.
2'F-ANA at 1 2 3 6 7 10 12 14 15 | 57.1 a.u.
2'F-ANA at 3 4 5 7 8 9 10 12 14 15 | 59.6 a.u.
2'F-ANA at 1 3 5 7 8 10 12 14 | 55.2 a.u.
2'F-ANA at 1 2 5 9 13 | 55.7 a.u.
2'F-ANA at 2 4 5 7 8 11 12 13 15 | 80.4 a.u.

Series 3
Target: ABI1, truncated, D143A, DHFR fusion (Arabidopsis thaliana)
Technique: DHFR PCA, deep sequencing
Matrix: yeast
Setting: methotrexate growth selection, single substitutions
Added: (+)-ABA 0 µM
Baseline: wild-type fitted maximum
Reading: higher = stronger binding
Starting sequence: PYL1, truncated, DHFR fusion (Arabidopsis thaliana); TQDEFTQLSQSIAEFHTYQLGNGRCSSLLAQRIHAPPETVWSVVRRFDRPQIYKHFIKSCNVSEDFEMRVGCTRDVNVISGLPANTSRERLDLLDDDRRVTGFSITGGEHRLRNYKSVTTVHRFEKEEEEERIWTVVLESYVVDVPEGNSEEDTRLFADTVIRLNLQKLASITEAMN
Variant | relative binding score [%]
E152N | 0.322
N149I | 37.3
N22H | 33.6
R46K | 4.32
V62M | 4.71
E174W | -4.27
T154Q | -3.93
F15M | -2.41
K126Y | 17.8
T73H | 23.7
K116E | 1.59
I172Y | -7.36
S87F | 31.3
V76Q | 0.921

Series 4
Target: Histone acetyltransferase KAT6A, both winged helices, GST fusion (KAT6A, Homo sapiens, UniProt Q92794, residues 1-181)
Technique: protein binding microarray
Molecule type: double-stranded DNA, one strand shown
Matrix: in vitro
Tested at: not given
Setting: 8-mer, flanks averaged, mean of 2 arrays, mostly near background
Baseline: not given
Reading: higher = stronger binding
Target sequence (chain): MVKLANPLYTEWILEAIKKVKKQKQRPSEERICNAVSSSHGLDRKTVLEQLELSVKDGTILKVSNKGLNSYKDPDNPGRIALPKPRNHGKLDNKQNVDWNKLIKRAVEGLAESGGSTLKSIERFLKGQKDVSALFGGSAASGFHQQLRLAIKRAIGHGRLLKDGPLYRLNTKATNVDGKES
Sequence | E-score
AAATACTT | -0.049
ACCGCCCT | -0.00394
CAGACAAG | -0.129
CGTACAAA | 0.136
ACTTTTTC | 0.00486
ATAATGCA | -0.139
AGGTGTCC | -0.0222
CCTATGAA | 0.0211
ACTCGCGC | 0.327
GCTGCGCA | 0.21
ATGACCAG | -0.15
GAACCATC | 0.0619
CCTACACG | -0.0727
AAAACGAC | -0.0399
ACACCAAG | -0.14
CACACTGC | -0.0188
AGGCATGG | -0.0649
AACAGCCT | -0.0785
ACAGTCAA | -0.183
AGGCAGAA | -0.0717
